Experimental data from different studies.
Parts stem from different laboratories: compare values within a part only.

Sample 1 — technique: universal PBM; molecule type: double-stranded DNA, one strand shown; sample: in vitro; tested at: not given; direction: higher = stronger binding
Target: Sal-like protein 4, full length isoform B (SALL4, Homo sapiens, UniProt Q9UJQ4-2, residues 1-616)
Notes: 8-mer, flanks averaged, mean of replicates
| Strand | E-score |
| --- | --- |
| TGTTAACA | 0.256 |
| GGAACTGA | -0.115 |
| AAACAGAC | 0.0817 |
| ACCACTCT | -0.0967 |
| GGGACAAA | -0.0394 |
| CCTGATAG | -0.142 |
| AGGGATAT | 0.22 |
| GGGGGACA | -0.302 |
| GTGTAGGA | 0.0525 |
| GCAGTGGC | -0.323 |
| AGAACTAC | 0.0546 |
| GAATTATC | 0.268 |
| CACGATTA | 0.132 |
| GGCGCATA | 0.0132 |
| AGAGTTGC | -0.0724 |
| CTACTGCA | 0.0232 |

Sample 2 — technique: RNA Bind-n-Seq; molecule type: RNA; sample: in vitro; tested at: not given; notes: RNA with constant flanks, ends assumed; reference: input RNA pool; direction: higher = stronger binding
Target: RING finger protein unkempt homolog, zinc fingers 1-6, GST-SBP tag (UNK, Homo sapiens, UniProt Q9C0B0, residues 30-357)
Chain of UniProt Q9C0B0 (30-357, looked up): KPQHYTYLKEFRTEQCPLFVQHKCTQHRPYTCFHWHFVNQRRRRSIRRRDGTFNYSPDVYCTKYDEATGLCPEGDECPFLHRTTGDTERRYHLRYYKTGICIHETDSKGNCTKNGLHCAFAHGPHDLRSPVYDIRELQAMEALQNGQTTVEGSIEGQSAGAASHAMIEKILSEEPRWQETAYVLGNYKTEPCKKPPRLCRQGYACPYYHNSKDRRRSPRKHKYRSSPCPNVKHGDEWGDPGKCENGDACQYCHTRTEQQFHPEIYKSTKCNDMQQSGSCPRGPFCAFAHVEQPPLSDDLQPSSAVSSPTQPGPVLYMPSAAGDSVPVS
Constant ends, left off below: GGGAGUUCUACAGUCCGACGAUC … CAACAGAGGAUUGAGCAUCA
| Strand | bound/input enrichment [ratio] |
| --- | --- |
| AAGUUUCUGGACGGCAAUGAGCUCACCCUGGCUGACUGCAACCUGCUGCCAAAGCUUCACACCGUACAGGUGGUGUGCAAAAAGUACAGAGGCUUCACCAUCCCAGAGGCAUUCCGUGGA | 0.139 |
| UAUUAUUUAUUAUAGCAUUUUUGAUACCUCAUAUUCUGUUUACACAUCUUGAAAGGCGCUCAGCCGUUCUCUUACUAAACAACCACUACUCCAGAGAAUGGCAACGCUGAUUACCAGUAC | 13.1 |
| GCAGCUGGAGAUUCUAAGUCCAUCAUCACGUGUCGGGUGUCCCUUCUGGAUGGUACUGAUGUCCGUGUGGACUUGCCAAAAAAAGCCAAAGGACAAGAGUUGUUUGAUCAGAUUAUGUAC | 0.137 |
| GUUCUUCUCCCAGAAUAUGGAGGCACCAAAGUAGUUCUAGAUGACAAGGAUUAUUUCUUAUUCCGAGAUAGUGACAUUCUUGGAAAGUAUGUCGACUGAAAUCACUGUUGAAAUGGUGUC | 0.279 |
| AAAUAAAUAUUUAAUUUUUUUAAUUGCUCUUGUAUAAUCAGAUGCCCUUUUUAGUAUUAUUUCCGAAGCAUUUGGGAGGAUUUUGCCUAAAAUACAAUUUAUUGGGGGAGACUAGAUUUU | 4.32 |
| AAACUAAUACUUAUCUUUAAAAUAGUAAAUAGGAUUUUAAACAGAGAAUUUUAUCAGUAACCGGUGUCAGUUUUUAAAAAAUUGCUUGUAGGCUGAGCGCGGUGGCUCACGCCUGUAAUC | 3.4 |
| AGUCAUGAACCGGAGUUUGACUAUUUGAAAAGUCUAGAAAUUGAGGAAAAAAUUAAUAAAAUCCGGUGGUUACCACAACAGAAUGCUGCUCAUUUUCUACUGUCUACAAAUGAUAAAACU | 1.08 |
| CAAUAUAAGGAUGAUAAUUUUGGAGAAGGAAAUGAUGGUGGAAUAUUAGAUGACAAACUUAUCCGUAAUAAUGAUGGCGGUAUCUUUGAUGAUCCCCCUGCCCUCUCUGAGGCAGGGGUG | 2.18 |
| CCCGUCUUGGCUUAUCCACUUUGACUCCUUUGAGCCGUUUGGAGGGGCGGUUUCUGGCCGUUGUGGCUUUUAUGCUUUCAAAGAAUUUCUUCAGUCCAGAGAAUUCCUCCUGGCAGCCCU | 0.221 |
| GAGCAUCCCCCAAAGUUCACAAUGUGGCCGAGGACUUUGAUUGCACAUUGUUGUUUUUUUAACCGUCAUUCCAAAUAUGAGAUGCGUUGUUACAGGAAGUCCCUUGCCAUCCUAAAAGCC | 0.198 |
| UUUAAUGACUCUCAGCGUCAGGCUACCAAAGAUGCUGGAACUAUUGCUGGUCUCAAUGUACUCCGAAUUAUUAAUGAGCCAACUGCUGCUGCUAUUGCUUACGGCUUAGACAAAAAGGUU | 0.827 |

Sample 3 — technique: RNA Bind-n-Seq; molecule type: RNA; sample: in vitro; tested at: 200 nM; notes: whole 134-nt RNA, ends assumed; with: 150 mM LiCl; reference: input library; direction: higher = stronger binding; all molecules: 7-deaza-guanosine replaces G
Target: Ras GTPase-activating protein-binding protein 1, full length (G3BP1, Homo sapiens, UniProt Q13283)
Chain of UniProt Q13283 (whole entry, looked up): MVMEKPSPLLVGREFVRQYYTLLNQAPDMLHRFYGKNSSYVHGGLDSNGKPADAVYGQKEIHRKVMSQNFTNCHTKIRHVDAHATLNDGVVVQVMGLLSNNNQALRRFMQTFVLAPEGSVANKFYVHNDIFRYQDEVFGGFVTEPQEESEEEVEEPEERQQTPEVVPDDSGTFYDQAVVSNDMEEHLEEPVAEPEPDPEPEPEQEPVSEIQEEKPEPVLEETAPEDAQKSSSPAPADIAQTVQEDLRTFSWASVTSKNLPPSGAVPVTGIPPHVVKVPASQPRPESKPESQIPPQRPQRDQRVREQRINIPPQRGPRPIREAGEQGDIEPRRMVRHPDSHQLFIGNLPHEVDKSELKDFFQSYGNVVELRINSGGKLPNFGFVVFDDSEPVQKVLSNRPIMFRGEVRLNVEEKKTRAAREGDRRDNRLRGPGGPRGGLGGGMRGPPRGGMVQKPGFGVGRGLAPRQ
Constant ends, left off below: GGGAGUUCUACAGUCCGACGAUC … UGGAAUUCUCGGGUGUCAAGG
| Strand | log2 enrichment |
| --- | --- |
| GCAGGAAGUAAAAACAAAUGGAAAUGCUUCGGAUAGUGGCAGGGGUGGGGGUUGCUAAGGAAAAAGUGGGAUGGGAGUGGGUAAAGAGUU | 0.496 |
| UGGUAGGUGGAUUUUGUUUAUUUUUUUAGCUCAUUUCCAGGGGUGGGAAUUUUUUUUUAAUAUGUGUCAUGAAUAAAGUUGUUUUUGAAA | 0.455 |
| AGUCCUGUGCUACACAUCGUAUGUACCGAAUCGGGGUUUUUUUGGGGUGGGGAGGGGAAAGUAUUAUGUUACGCCGUUCGGAUCUGCACU | 0.883 |
| CACGGACAACACGCACCCACACAGACACAGAGGGAAGGGGUUGGGAUGGGGACAGGGUGCACAGCAGGGCGGGGUAGGACCCCAGCCCCU | 1.22 |
| AGUCCUGUGCUACACAUCGUAUGUACCGAAUCAAACCCCCAAACCCAAACCCCCAAAAAAGUAUUAUGUUACGCCGUUCGGAUCUGCACU | -0.199 |
| CCUGUGCUACACAUCGUAUGUACCGAAUCGGGAAAAAAAGGGUUUUUUUGGGUUUUUGGGAAAGUAUUAUGUUACGCCGUUCGGAUCUGC | -2.65 |
| CACAGACAACACGCACCCACAAAGACACAGAGGGAAGGGGUUGGGAUGGGGACAGGGUGCACAGCAGGGCGGGGUAGGACCCCAGCCCCU | 0.106 |
| AGUCCUGUGCUACACAUCGUAUGUACCGAAUCGGGUUUUGGGGUUUUGGGUUUUGGGAAAGUAUUAUGUUACGCCGUUCGGAUCUGCACU | -0.452 |
| UAACUUUAGAGGAGGAUCUGAUGGAUAUGGCAGUGGACGUGUAUUUGGGGAUGGCUAUAAUGGGUAUGGAGGAGGACCUGGAGGUGGCAA | -0.0103 |
| GCAGGAAGUAAAAACAAAUGGAAAUGCUUCGGAUAGUGGCAGGGGUGGGGGUUGCUAAAAAAAGGGUGGGAUGGGAGUGGGUAAAGAGUU | 0.108 |
| UGCCUCGGGAGGAGCUGUUUGUGACAUCCAAGCUGUGGAACACCAAGCACCACCCCGAGGAUGUGGAGCCUGCCCUCCGGAAGACUCUGG | -0.583 |

Sample 4 — technique: RNA Bind-n-Seq; molecule type: RNA; sample: in vitro; tested at: 365 nM; reference: no-protein control; direction: higher = stronger binding
Target: RNA binding protein fox-1 homolog 2, RRM domain, GST-SBP tag (RBFOX2, Homo sapiens, UniProt O43251-10, residues 100-194)
Notes: natural RNA segment, single round, ends assumed
Constant ends, left off below: GGGAGUUCUACAGUCCGACGAUC … UGGAAUUCUCGGGUGCCAA
Construct (chain): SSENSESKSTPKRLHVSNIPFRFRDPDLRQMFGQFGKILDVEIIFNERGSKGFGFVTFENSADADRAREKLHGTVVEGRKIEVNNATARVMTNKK
| Strand | RBNS enrichment (R) |
| --- | --- |
| ACCAGUGGAAGCACAGCUCCAAGUUCAGACAGGUGCCCUUAGAGAGGAAAACCAUGACAGGCAAAUGCAUUUCCUCUGGAGUUUGAGACCCUGACAAACAACAGGUGGCA | 0.701 |
| UCCAGAUUGAUUACUCAAGCAGACAGCACACGAAAUACUAUUUUUCUCCUAAUAUGCUGUUUCCAUUAUGACACAGCAGCUCCUUUGUAAGUACCAGGUCAUGUCCAUCC | 0.609 |
| UAAGUAAAGAAAGACAAUUGGACCCUUAAGAAUUUAUGCAUUUGUAAAGUUGCUGUUGAUCCAAAUAUUUUCAAGCCAUGUAAUCCAUUGGUUUUGUGGGCAGUUUAAUA | 1.36 |
| CCAUAUGGAGGGCAAUUCAGCCAAUGUCCCUGAAGAAUUAAAAAAAAAAAAAUUCCACUAGACCACCAUCCCUUUUGUUUUGGGAUUUUUUUUCAACCUUUUCCAUUUGC | 0.787 |
| UGAUUUGUUGAUUUAGUUAAAAUAUACUAUUCCUAGAUUUAUUUAACAGUCUUUCUUAAAAUCAGUAUACUAUUUUAGUGGACUUCUGUCUCUAUGAGACAGCUAGUCCA | 0.411 |
| UCCUUCUAGGAAGGGGCUUUCAGGAGAGAGAGUUCUUGUGCUGUCUGAGAAGUGCAGGGGAGACAAAUGAAUGCAGUGUCCAUCCAGCUCUGGGUUUUCUUUAUCCUGCC | 0.747 |
| CUAGAAUGCUCUGUAUACUUUAUAUUAAAAAAUGCUUUGCAUUUCUUCCAGUGCAAUGAAAUUCAUAUGGUGUCCCACCUUAUUUAAUGAUGGUACAAUUUAAAAUCUUA | 0.549 |
| CAUUUUUACACUUUAGGAGUAAUCUGGAAUUCAAAAGGGAAUGAGAGCUUACUCCCUUCCACAGUUUCCUCCAAGCCCUGUCCUGAGAAUUCUGACCCUCGACACCUGAG | 0.299 |
| UGCUUGCUCAGGCUCAGAGGGACCUCACCCCUGAGCAGGCUGCAGAGAGACUAAGGGCACUUCCUGAGGUUCAUUACCACCUGGGGCAGAAGGACAGGGAGACAGCAACC | 0.247 |
| CUCUGGACCAUACGCGGAGGAGUUUUCUGUGUGGUCUCCAGCUCCUCUCCAGACACAGAGACAUGGGAGUGGGGAGCGGAGCUUGGCCCUGCGCCCUGUGCAGGGAAAGG | 0.738 |
| AUUUCAGUUGCUAUAUCAUAAGCAUUUUUAAAGUUUCUUUUCUAAUUUUACAUUGUAUUAGAUUUUCUGAUUCUUUUGUAAAUACAGAACUUAAAUAGAAGGCAACAGGA | 0.869 |
| GUGGUCUGCUCAUCUCUUUAGGGAACUUUGAGGUGGGCGGUGGCAUAUGGAGGGGUGUCAGGUUCUAUGUGACCCAGUAAUGAGAAGAGCUUGAAGGUGAGGCCUGAGGG | 0.869 |

Sample 5 — technique: protein binding microarray; molecule type: double-stranded DNA, one strand shown; sample: in vitro; tested at: not given; reference: not given; direction: higher = stronger binding
Target: Histone acetyltransferase KAT6A, winged helix 2, GST fusion (KAT6A, Homo sapiens, UniProt Q92794, residues 85-181)
Notes: 8-mer, flanks averaged, mean of 2 arrays, mostly near background
Target sequence (chain): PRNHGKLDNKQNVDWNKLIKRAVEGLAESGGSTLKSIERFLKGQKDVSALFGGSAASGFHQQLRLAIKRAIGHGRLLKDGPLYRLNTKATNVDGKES
| Strand | E-score |
| --- | --- |
| GCACTAAC | -0.000275 |
| CCGTTCAA | 0.0152 |
| CGCCCTAC | 0.0256 |
| ATGGGTGG | -0.0964 |
| GAACTGAA | -0.103 |
| GAATTCTA | 0.0195 |
| TAAGACAA | -0.0633 |
| ACATGGTA | -0.266 |
| GGAAAAAA | 0.14 |
| AGCGATCG | -0.0994 |
| ACCGGGGC | 0.0664 |
| GATGTGGC | -0.212 |
| CTTTAGGA | -0.0467 |
| ACAACCCC | -0.307 |
| GTCGGCCA | 0.056 |
| ACAGCGCC | 0.0483 |
| CACCACTG | -0.0185 |
| CGTCCTCC | -0.115 |
| AGTACGGA | -0.0706 |
| AAACACGA | 0.0556 |
| CATCCTAG | -0.141 |
